Measurements collected from several papers.
Parts stem from different laboratories: compare values within a part only. Positions count from the first letter of the parent shown.

Set 1
Target: RNA binding protein fox-1 homolog 2, RRM domain, GST-SBP tag (RBFOX2, Homo sapiens, UniProt O43251-10, residues 100-194)
Method: RNA Bind-n-Seq
Form: RNA
Matrix: in vitro
Concentration: 365 nM
Notes: natural RNA segment, single round, ends assumed
Baseline: no-protein control
Direction: higher = stronger binding
All sequences stand within: GGGAGUUCUACAGUCCGACGAUC … UGGAAUUCUCGGGUGCCAA
Construct (chain): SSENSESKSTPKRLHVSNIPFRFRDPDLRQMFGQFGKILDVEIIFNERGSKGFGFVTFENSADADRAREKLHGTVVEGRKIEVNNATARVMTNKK
| Strand | RBNS enrichment (R) |
| --- | --- |
| ACAUAAUCCUUUGUAUGUGCAGUUUGUAAAGUAUCUGCAGAAUUAAAUGCUCUUAUUUACAGAUCAGAAAACUAACACCAGUGUCAGGAUCACAGUAUGGGAAUGACUGA | 0.292 |
| UGAACACUUUGCUGCUUAGAAAUUUCUUCCGCUAGUUAACCUAAAUCAUCUCUCUCAAGUUCAAAGUUCCACAAAUCCCUAUGGAAGGGGCAAAAUGCUGCCAGUCUCUU | 0.892 |
| GCAGUUGAAAUGUAGUCCCCUAGAAUCCUAAAGGCUGUUAUUCUCAUCCUAGUUCCAGGUGUAACUUGGUGGCCAGAAUUGAGAAGAGUGCCAAAUGACCACCCGUCAGG | 0.177 |
| CGGGGCCAUCGGCUCAGCUCUUGGCUGCCUGGUCAGCCGGUCAGUGUUUUGCGGGGAGAGGUGGCGGGGUGGGAACCGCGUCAUUCCAAAGUGGAUCUGCGGUGAAGCCA | 0.333 |
| CUUUAACUGAAUUUUCAAAUGAAAUGAACUAUGCUUAUUGCUGGCACAUUGAUCCCAUUUCUGGAACAUUUUUCCUAUUUCCAGAGUUACAUAUGUUCUUUUGUCAUUAC | 0.55 |
| CAUUCAGAAAGCAUGCUGUGUGGGGGCUGCUUCUCAGGAGGCCAGGCCCUUCUGAGCGGAACCGUCCUGGAGAGAGCCUGCCCUCGUUUCCAGGCUGCAGCCGUAACGCA | 4.47 |
| AUGCUGCUAUCAUUUAUUUGGUCCUUUGAAGAUCUCAGUAGCUGAGGGAGAUGGCACACGGGGCUCAGCCCUGUUGGGAAACUGGUGUGGAGACCCUUAAAUCCACACUG | 0.274 |
| UGGGUACUCCAGGCACACACCUUUCUGAAAUCCUUCUCCAGCCAGCUGCUGCAGACAAAAGAUCACAUUUCUGGGAAGAUGAGAACUUGUUUCCAGACCAGCAUCCAGUG | 0.717 |
| ACACUCUCCAGUCAUGUCUCCCAAGGGGAUGCAAUUCAGGCUGAGGAAAAGAUGCCAUAUCCCUCUAAAUCUAGUGAUUAGACCUAGGAUCACCCUGUCUCUUUACCACU | 0.379 |
| CUCUUGAACCCAGGAGGCAAAAGUUGCAAUGAGCUGAGAUCGUGCCAUUUGCACUCCAGCCUGGGCAACAAGAGCGAAAUUCCAUCUCAAAAAAAAAAGGUGGGUAAAGG | 0.678 |
| AGUGGAUAAAACUUUAAGUCCAAUAACUUGGGGGUCAAAUGCUAAUGUUUUAUUCAAUGUAAAGGAAGACCAAACCAUGUACCUUAUGAAGACCUUUGUUUUAAGACUUC | 0.396 |
| UGGGCCCUGUACCCCCAACUGCGAAUGCCAGACUUAAGACUGCCUUACAGAGUAAUCUUUGAUUUCUCCAUCUGAUGUGGCCCUGGGAGCUGGAGCAAGAGUCCACCUUU | 0.803 |

Set 2
Target: Sal-like protein 4, full length isoform B (SALL4, Homo sapiens, UniProt Q9UJQ4-2, residues 1-616)
Method: universal PBM
Form: double-stranded DNA, one strand shown
Matrix: in vitro
Concentration: not given
Notes: 8-mer, flanks averaged, mean of replicates
Direction: higher = stronger binding
| Strand | E-score |
| --- | --- |
| GCCGCCAC | -0.359 |
| GCTTGTAA | 0.0944 |
| GATTACCC | 0.0388 |
| CTCACGCA | -0.0474 |
| AAAAGGTC | -0.00774 |
| ATCCTTCG | -0.0595 |
| GCCGTATA | 0.261 |
| ATGGACAT | 0.142 |
| ACGAGGTG | 0.0377 |
| TAACAGTA | 0.161 |
| TGCGCTAA | -0.0189 |
| GATGAGAC | 0.0448 |
| CGTCTGCC | -0.169 |
| AATCACCG | -0.093 |
| AGACTAGC | -0.175 |
| GACCCGGC | -0.317 |
| CCTGTAAG | -0.112 |
| GTCTGGGA | -0.16 |
| AGCTCGGA | -0.314 |
| GGCAGAAA | 0.0556 |
| CCGTTAAC | -0.0834 |

Set 3
Target: ABI1, truncated, D143A, DHFR fusion (Arabidopsis thaliana, UniProt P49597)
Method: DHFR PCA, dose-response
Matrix: yeast
Notes: Hill fit, mean, not affinity
Added: (+)-ABA, dose series
Direction: lower = more sensitive
Starting sequence: PYL1, truncated, DHFR fusion (Arabidopsis thaliana, UniProt Q8VZS8); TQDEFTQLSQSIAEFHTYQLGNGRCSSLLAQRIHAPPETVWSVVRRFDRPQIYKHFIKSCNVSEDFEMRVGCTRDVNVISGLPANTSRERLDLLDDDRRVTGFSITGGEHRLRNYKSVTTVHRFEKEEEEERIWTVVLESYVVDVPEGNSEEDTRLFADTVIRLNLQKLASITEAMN
| Substitution | ABA EC50 [µM] |
| --- | --- |
| N114D | 70.9 |
| E127K | 2.1 |
| E152Y | 3.72 |
| N114M | 239 |
| E127M | 3.01 |
| I79R | 13.9 |
| V62N | 108 |
| R88A | 6.87 |
| D95Q | 72.4 |
| N22S | 2.84 |
| S59M | 21.7 |
| G21A | 1.82 |
| D96N | 17.5 |
| R45N | 119 |
| L20M | 3.94 |
| E127V | 3.03 |
| V70C | 14.3 |
| W134E | 1.04 |
| L28S | 101 |
| G81V | 334 |
| R69D | 7.34 |
| T173G | 24.7 |
| C72H | 10.6 |
| R88Y | 2.46 |
| F66G | 2.11 |

Set 4
Target: Phosphate system positive regulatory protein PHO4, full length, GST-tagged (PHO4, Saccharomyces cerevisiae, UniProt P07270, residues 1-312)
Method: competition protein-binding microarray
Form: double-stranded DNA, one strand shown
Matrix: in vitro
Concentration: 2 µM
Notes: whole 60-bp probe, lowest competitor level
Added: Cbf1 competitor, 0.05 µM
Direction: higher = stronger binding
All sequences stand within: … GTCTTGATTCGCTTGACGCTGCTG
Construct (chain): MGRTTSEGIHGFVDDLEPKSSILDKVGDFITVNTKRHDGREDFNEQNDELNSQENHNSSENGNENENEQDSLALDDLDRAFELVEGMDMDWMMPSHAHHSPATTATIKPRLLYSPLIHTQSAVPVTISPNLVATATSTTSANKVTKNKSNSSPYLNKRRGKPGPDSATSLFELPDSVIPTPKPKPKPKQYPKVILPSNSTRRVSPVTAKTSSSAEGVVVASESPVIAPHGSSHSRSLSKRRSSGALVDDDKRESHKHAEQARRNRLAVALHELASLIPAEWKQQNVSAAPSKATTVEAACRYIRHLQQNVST
| Strand | fluorescence intensity [a.u.] |
| --- | --- |
| CTAACGAAGGTTTGTCACACGACTTACAAGCCAAGT | 5920 |
| CATACCCAACCTTGGAATGTGGGTGAAGATATTTGT | 6580 |
| GAATTCTGTGCACTTGCCGTGATGGTGTTCGTTACA | 3710 |
| AGTACACATACTTTGCACGTGCGGACGGAACAATGG | 18500 |
| AATTTTGGAGCTTGACATGTGGCCTCAATTGCATAA | 10000 |
| CATACCCAACCTTTTCACGTGTGATAAGATATTTGT | 13900 |
| CCGCTAAGCCCGAGAGCCGTGCGATCTATGTTTCTT | 4830 |
| CTGTTTACCAATACTCACGTGGCCGCTCTTCTTTAG | 16100 |
| AAATTACTAAGTTGTCACCGGACTTACCCCGTATGA | 3030 |
| TTATTGTCATTTGAAGGCGTGATGGGTATGTCGTTA | 6990 |
| TTATGATACAGTTCTCCCGTGGTTACCAGCTTGGCA | 4880 |
| ACATCCTGCGAATCTCATGTGTGTACTGAATCCATC | 6340 |
| CTAACGAAGGTTTGACGAGTGGGTGACAAGCCAAGT | 3920 |
| CTTTCCCGATCTTGATGTGTGGGTGTAGCACATTTG | 5980 |
| ATTTTGCACTTCCGTCACATGCAATCGAGGCAAAAA | 7740 |
| CGCAGTATATCGTTACGCGTGAGGAGGATCTGCGCT | 5260 |
| AAATCATTATTTACGCGCGTGCAAATTTCGCCATCA | 9560 |
| CGGGGTTAAGTTTGAACAGTGGGTGGCTTGCAGCAG | 4780 |

Set 5
Target: CCNE1, cyclin fold, Cln2 fusion (human)
Method: yeast growth competition, sequencing
Matrix: yeast
Notes: strong parent motif
Baseline: not given
Direction: higher = stronger binding
Starting sequence: CDC25A docking peptide (human); PPHRRRLLFACSP
| Substitution | normalised enrichment score |
| --- | --- |
| R6S | 0.366 |
| P1K | 2.45 |
| P2G | 1.29 |
| P1I | 1.4 |
| F9K | 0.843 |
| A10E | 3.2 |
| R4L | 1.46 |
| H3T | 1.94 |
| C11I | 1.21 |
| P1H | 1.02 |
| P1E | 2.76 |
| R6I | 1.2 |
| R5A R6A L7A L8A | 0.172 |
| P13E | 1.37 |

Set 6
Target: Prothrombin, mature alpha-thrombin (F2, Homo sapiens, UniProt P00734)
Method: aptamer microarray, sandwich
Form: DNA with 2'F-ANA
Matrix: in vitro
Concentration: 200 nM
Notes: whole 15-mer aptamer, many near background
Added: Cy3 exosite-II aptamer, 400 nM
Direction: higher = stronger binding
Strand: GGTTGGTGTGGTTGG
| Modification | mean fluorescence intensity [a.u.] |
| --- | --- |
| 2'F-ANA at 1 2 3 4 6 7 12 14 | 78.9 |
| 2'F-ANA at 1 2 3 6 8 9 10 11 13 | 61.9 |
| 2'F-ANA at 1 3 6 12 | 504 |
| 2'F-ANA at 4 9 10 11 14 15 | 60.8 |
| 2'F-ANA at 1 2 3 4 5 6 7 9 11 12 14 | 72.2 |
| 2'F-ANA at 2 5 6 8 9 11 12 | 133 |
| 2'F-ANA at 2 4 5 6 7 8 9 10 11 15 | 52.9 |
| 2'F-ANA at 1 2 4 5 8 9 | 65.8 |
| 2'F-ANA at 1 3 4 5 6 9 11 13 14 | 58.1 |
| 2'F-ANA at 5 6 10 12 | 49.7 |
| 2'F-ANA at 1 3 4 5 6 11 12 | 84.9 |
| 2'F-ANA at 1 3 4 7 12 14 | 103 |
| 2'F-ANA at 1 2 6 7 8 9 10 11 12 15 | 61.7 |
| 2'F-ANA at 3 5 7 12 13 15 | 180 |
| 2'F-ANA at 1 2 7 8 9 15 | 244 |
| 2'F-ANA at 5 9 10 11 12 14 15 | 60.8 |
| 2'F-ANA at 7 11 15 | 528 |
| 2'F-ANA at 1 3 4 7 10 11 15 | 60.2 |
